Experimental data pooled from the literature.
Numbered parts are unrelated; each lists some results of a single study.

Sample 1
Target: Histone acetyltransferase KAT6A, both winged helices, GST fusion (KAT6A, Homo sapiens, UniProt Q92794, residues 1-181)
Technique: protein binding microarray
Molecule type: double-stranded DNA, one strand shown
Medium: in vitro
Concentration: not given
Notes: 8-mer, flanks averaged, mean of 2 arrays, mostly near background
Reference: not given
Reading: higher = stronger binding
Residues (chain): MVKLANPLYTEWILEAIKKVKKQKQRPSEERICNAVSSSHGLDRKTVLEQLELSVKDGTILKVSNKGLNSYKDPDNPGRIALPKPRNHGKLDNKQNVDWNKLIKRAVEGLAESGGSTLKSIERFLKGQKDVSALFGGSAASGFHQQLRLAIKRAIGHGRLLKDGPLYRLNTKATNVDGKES
Oligonucleotide | E-score
AAGTCATG | -0.0556
ACGGCGAG | 0.24
CGTTGTTC | 0.163

Sample 2
Target: Sal-like protein 4, full length isoform A (SALL4, Homo sapiens, UniProt Q9UJQ4, residues 1-1053)
Chain of UniProt Q9UJQ4 (whole entry, looked up): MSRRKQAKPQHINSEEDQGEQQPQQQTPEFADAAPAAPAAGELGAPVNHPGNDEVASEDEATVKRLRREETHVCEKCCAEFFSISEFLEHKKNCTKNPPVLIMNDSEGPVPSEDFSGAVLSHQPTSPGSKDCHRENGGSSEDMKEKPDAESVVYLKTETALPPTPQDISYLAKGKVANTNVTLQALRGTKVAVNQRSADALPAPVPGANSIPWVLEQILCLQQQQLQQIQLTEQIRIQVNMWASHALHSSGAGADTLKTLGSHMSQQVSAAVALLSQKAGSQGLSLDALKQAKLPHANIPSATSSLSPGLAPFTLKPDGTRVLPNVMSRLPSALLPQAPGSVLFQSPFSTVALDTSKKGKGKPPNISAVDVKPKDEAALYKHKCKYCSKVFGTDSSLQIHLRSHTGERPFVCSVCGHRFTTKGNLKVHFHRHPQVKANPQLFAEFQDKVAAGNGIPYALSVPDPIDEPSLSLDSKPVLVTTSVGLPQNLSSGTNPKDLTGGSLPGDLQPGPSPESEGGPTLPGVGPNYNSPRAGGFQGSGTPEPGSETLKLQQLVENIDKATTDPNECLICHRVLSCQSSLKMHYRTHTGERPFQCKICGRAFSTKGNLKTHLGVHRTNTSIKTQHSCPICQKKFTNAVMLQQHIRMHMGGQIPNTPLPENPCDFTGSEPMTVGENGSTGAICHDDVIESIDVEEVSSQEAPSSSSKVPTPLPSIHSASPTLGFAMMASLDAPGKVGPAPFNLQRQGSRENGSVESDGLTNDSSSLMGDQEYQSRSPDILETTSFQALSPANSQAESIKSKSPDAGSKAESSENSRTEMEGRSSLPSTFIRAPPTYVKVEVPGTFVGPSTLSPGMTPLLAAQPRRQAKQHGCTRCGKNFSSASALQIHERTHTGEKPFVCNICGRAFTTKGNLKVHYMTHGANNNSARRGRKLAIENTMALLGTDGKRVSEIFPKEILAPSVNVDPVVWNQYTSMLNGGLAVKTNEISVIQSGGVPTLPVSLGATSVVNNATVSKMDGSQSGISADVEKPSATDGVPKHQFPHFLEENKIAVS
Technique: universal PBM
Molecule type: double-stranded DNA, one strand shown
Medium: in vitro
Concentration: 600 nM
Notes: 8-mer, flanks averaged, mean of replicates
Reading: higher = stronger binding
Oligonucleotide | E-score
CATGGACG | -0.0744
AAGGCTGC | -0.156
ACTCTATG | -0.074

Sample 3
Target: Interferon regulatory factor 3, full length, phosphomimetic (IRF3, Homo sapiens, UniProt Q14653, residues 1-427, S386D/S396D/S398D/S402D/T404D/S405D)
Technique: protein-binding microarray
Molecule type: double-stranded DNA, one strand shown
Medium: in vitro
Concentration: 2540 nM top
Notes: 60-bp whole probe
Added: salmon DNA 0.4 mg/ml
Reference: random background probes
Reading: higher = stronger binding
Residues (chain): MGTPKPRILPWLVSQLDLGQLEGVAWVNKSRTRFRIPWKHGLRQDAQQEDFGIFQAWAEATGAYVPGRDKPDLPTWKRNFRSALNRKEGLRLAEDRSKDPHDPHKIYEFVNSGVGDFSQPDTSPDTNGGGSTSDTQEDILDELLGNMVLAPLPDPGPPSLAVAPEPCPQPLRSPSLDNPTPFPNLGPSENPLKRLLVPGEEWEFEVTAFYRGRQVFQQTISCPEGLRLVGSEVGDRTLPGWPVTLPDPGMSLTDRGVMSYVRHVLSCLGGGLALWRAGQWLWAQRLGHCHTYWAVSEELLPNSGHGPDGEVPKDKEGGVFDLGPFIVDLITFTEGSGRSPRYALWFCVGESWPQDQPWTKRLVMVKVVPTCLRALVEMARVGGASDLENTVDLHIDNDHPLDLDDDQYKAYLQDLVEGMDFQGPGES
Oligonucleotide | fitted relative affinity
GCCTAGCACCAAACACTAGTTTTCATTTTGTGCTAGGTCTTGATTCGCTTGACGCTGCTG | 3.75 z-score
GCCTAGCACATAGGTCTCCTACTGCTTTAGTGCTAGGTCTTGATTCGCTTGACGCTGCTG | 0.741 z-score
GCCTAGCACTGGCCTCTAGGTTTTCTGGAGTGCTAGGTCTTGATTCGCTTGACGCTGCTG | -1.41 z-score

Further values, each from its own experiment
Molecule | target | assay | system | conditions | how to read | measurement | result
PhoQ, residues 284 288 289 292 302 303 TTCLQL | PhoP, residues 12 14 15 18 19 SFCSL (Escherichia coli, UniProt P23836) | Sort-seq, measured: YFP reporter | E. coli | PhoQ-PhoP variant library, added: 10 µM Mg2+ | reference: high Mg2+ state, higher = stronger signaling | fold induction | 2.16

Repeated from above (sample 2):
Oligonucleotide | E-score
AAGGCTGC | -0.156
